Measured values pooled from the literature.
“And” joins repeats or separate records; there may be more than shown. ± marks the error that the study gave. In brackets after ≈: the same amount, converted by molar mass.

SMILES	target or system	assay	system	conditions	how to read	endpoint	value
Cc1ncsc1-c1ccc(C(C)NC(=O)C2CC(O)CN2C(=O)C(NC(=O)CCCCCCCCCCN2CCCC(Nc3ncc(Cl)c(Nc4ccccc4S(=O)(=O)C(C)C)n3)C2)C(C)(C)C)cc1 (centres unmarked)	22Rv1	RNA-seq, measured: THRB mRNA		concentration not given	relative to: DMSO	log2 fold change	-1.05
COC1OC(C)C(OC2OC(C)C(OS(=O)(=O)O)C(OC3OC(C)C(OS(=O)(=O)O)C(OS(=O)(=O)O)C3O)C2O)C(OS(=O)(=O)O)C1O (centres unmarked)			human plasma	128 µg/mL		thrombin time	9.6 ± 0.7 s
Cc1cccc2c1N(C(=O)n1ccnn1)CC2	Arabidopsis thaliana		wild type, seedlings	3 µM, continuous red light, together with: 0.3 µM karrikin KAR2		hypocotyl length	13.9 mm
COC1CN([C@H]2CC[C@H]([C@@]3(C)Oc4c(Cl)cc(C(=O)NCc5c(SC)cc(C)[nH]c5=O)c(C)c4O3)CC2)C1		RNA-seq, measured: RTN1 mouse homolog	mouse, HT-1376 xenograft, whole blood	dose not given	relative to: vehicle	log2 fold change	0.226
Nc1ncc(-c2cc(-c3cnn(CC(F)(F)F)c3)ncc2F)nc1C(=O)NC1CNCC(F)C1 (centres unmarked)	HIPK3	KINOMEscan		1 µM	relative to: DMSO control	remaining binding	100%
COc1ccccc1-c1ccncc1C(=O)Nc1nnc(OCc2ccc(Cl)cc2)s1	PEO1 BRCA2-mutant			1.00 µM, together with: olaparib 1 µM		colony survival	0%
C=CC(=O)Nc1cccc(Cn2ncc3cnc(Nc4cnn(CCOC)c4)nc32)c1	PAK7 human	binding, KINOMEscan		100 nM	lower = stronger binding	percent of control	100%
COC1OC(C)C(OS(=O)(=O)O)C(OC2OC(C)C(OS(=O)(=O)O)C(OC3OC(C)C(OS(=O)(=O)O)C(OC4OC(C)C(OS(=O)(=O)O)C(OS(=O)(=O)O)C4OS(=O)(=O)O)C3OS(=O)(=O)O)C2OS(=O)(=O)O)C1OS(=O)(=O)O (centres unmarked)			human plasma	128 µg/mL	relative to: control	thrombin time prolongation	0.9 fold
COc1cc2c(NC3CCN(C(C)C)CC3)cc(N3CCOCC3)nc2cc1OCCCN1CCCC1		TMT quantitative proteomics, measured: MFGE8	5xFAD mice, hippocampus	dose not given		normalised protein abundance	-0.06 and 0.217 and 0.149 and 0.0537 and 0.198 and 0.0338 and 0.0937 and -0.096
CN1CCCNC(=O)c2cccc(c2)C(=O)NCCCN(C)CCCNc2cccc3c2C(=O)c2cccc(c2C3=O)NCCC1	SAS	RNA-Seq, measured: RAB28 mRNA		1 µM, 6 h	relative to: untreated cells	log2 fold change	-1.14
COC1OC(C)C(OC2OC(C)C(OS(=O)(=O)O)C(OC3OC(C)C(OC4OC(C)C(OS(=O)(=O)O)C(OC5OC(C)C(OC6OC(C)C(OS(=O)(=O)O)C(OC7OC(C)C(OS(=O)(=O)O)C(OS(=O)(=O)O)C7O)C6O)C(OS(=O)(=O)O)C5O)C4O)C(OS(=O)(=O)O)C3O)C2O)C(OS(=O)(=O)O)C1O (centres unmarked)			human plasma	128 µg/mL	relative to: control	thrombin time prolongation	1 fold
CNS(=O)(=O)Nc1nccc(Cc2c(C)c3ccc(Oc4ncccc4F)cc3oc2=O)c1F	SET-2	cell viability		7 days		IC50	6.33 nM
COc1cc(O)ccc1CCC(c1ccc(O)cc1)c1cc2c(c(C)c1O)OC(c1ccc(O)cc1)CC2 (mixture of isomers)		measured: 14-HDHA	human whole blood	30 µM, together with: Escherichia coli		amount	8030 ± 2830 pg/mL blood
COC1OC(C)C(OC2OC(C)C(O)C(OC3OC(C)C(OC4OC(C)C(O)C(OC5OC(C)C(OC6OC(C)C(O)C(OC7OC(C)C(OC8OC(C)C(O)C(OC9OC(C)C(O)C(OS(=O)(=O)O)C9OS(=O)(=O)O)C8OS(=O)(=O)O)C(OS(=O)(=O)O)C7OS(=O)(=O)O)C6OS(=O)(=O)O)C(OS(=O)(=O)O)C5OS(=O)(=O)O)C4OS(=O)(=O)O)C(OS(=O)(=O)O)C3OS(=O)(=O)O)C2OS(=O)(=O)O)C(OS(=O)(=O)O)C1OS(=O)(=O)O (centres unmarked)			human plasma	128 µg/mL	relative to: control	thrombin time prolongation	0.9 fold
c1ccc(-c2n[nH]cc2-c2ccnc3ccccc23)nc1	MPS1 (Candida albicans)	kinase binding, MIB/MS competition	Candida albicans lysate	1 µM	relative to: DMSO	log2 fold change	0.56
COC1OC(C)C(OC2OC(C)C(OS(=O)(=O)O)C(OS(=O)(=O)O)C2O)C(OS(=O)(=O)O)C1O (centres unmarked)			human plasma	128 µg/mL	relative to: control	thrombin time prolongation	0.9 fold
C=CC(=O)N1[C@@H](c2ccc3c(c2)OCO3)c2[nH]c3ccccc3c2C[C@H]1C(=O)N1CCN(C)CC1	human cyclin E1 N112C-3xFLAG:CDK2	co-IP with TMT proteomics, measured: PRPF19		concentration not given, Q9UMS4	relative to: wild type DMSO	relative co-enrichment	136%
C=C(NC(=O)c1csc(-c2nc3c(cc2O)-c2nc(cs2)C(=O)NC(C(C)O)C(=O)NC(=C(C)OC)c2nc(cs2)C(=O)NC2c4nc(cs4)C(=O)NC(COC(=O)c4c5c6c(cccc6n4O)COC(=O)C(OC4CC(C)(O)C(N(C)C)C(C)O4)C2OC5)c2nc-3cs2)n1)C(N)=O (centres unmarked)	Enterococcus faecalis	microbial growth		clinical isolate		MIC90	0.0312 µg/mL (≈ 0.0217 µM)
CCN(CC)CC(=O)Nc1cccc(-n2cc(-c3ccc4ccc(-c5cn(-c6cccc(NC(=O)CN(CC)CC)c6)nn5)cc4c3)nn2)c1	RCC4	PCR angiogenesis array, measured: IFNA1		5 x IC50, 6 h, normoxia	relative to: untreated	fold regulation	-2.01
CC(C)c1ccc(N(C)c2ccc3c(c2)OCC[C@H]3CNc2cnccc2C(=O)O)cc1	HMCB	cell viability, CellTiter-Glo		7 days		IC50	11.1 nM

For quick reference, copied from above:
SMILES	target or system	assay	system	conditions	how to read	endpoint	value
C=C(NC(=O)c1csc(-c2nc3c(cc2O)-c2nc(cs2)C(=O)NC(C(C)O)C(=O)NC(=C(C)OC)c2nc(cs2)C(=O)NC2c4nc(cs4)C(=O)NC(COC(=O)c4c5c6c(cccc6n4O)COC(=O)C(OC4CC(C)(O)C(N(C)C)C(C)O4)C2OC5)c2nc-3cs2)n1)C(N)=O (centres unmarked)	Enterococcus faecalis	microbial growth		clinical isolate		MIC90	0.0312 µg/mL (≈ 0.0217 µM)
CCN(CC)CC(=O)Nc1cccc(-n2cc(-c3ccc4ccc(-c5cn(-c6cccc(NC(=O)CN(CC)CC)c6)nn5)cc4c3)nn2)c1	RCC4	PCR angiogenesis array, measured: IFNA1		5 x IC50, 6 h, normoxia	relative to: untreated	fold regulation	-2.01
CC(C)c1ccc(N(C)c2ccc3c(c2)OCC[C@H]3CNc2cnccc2C(=O)O)cc1	HMCB	cell viability, CellTiter-Glo		7 days		IC50	11.1 nM
